Assay results pooled from the literature.
Parts stem from different laboratories: compare values within a part only.

Sample 1
SMILES: O=C(Nc1ccccc1)Nc1cccc(Oc2ccc3nccn3n2)c1
Method: competitive binding panel
Concentration: 1 µM
Reference: vehicle
| target | test | remaining binding [%] |
| --- | --- | --- |
| DCLK2 (Homo sapiens, UniProt Q8N568) | item: DCAMKL2 | 100 |
| MYLK (Homo sapiens, UniProt Q15746) | – | 100 |
| CSNK2A2 (Homo sapiens, UniProt P19784) | – | 100 |
| EPHA8 (Homo sapiens, UniProt P29322) | – | 100 |
| LRRK2 (Homo sapiens, UniProt Q5S007, G2019S) | – | 39 |
| LATS1 (Homo sapiens, UniProt O95835) | – | 100 |
| DYRK1B (Homo sapiens, UniProt Q9Y463) | – | 55 |
| STK32C (Homo sapiens, UniProt Q86UX6) | item: YANK3 | 100 |
| PIM1 (Homo sapiens, UniProt P11309) | – | 100 |
| MAP3K11 (Homo sapiens, UniProt Q16584) | item: MLK3 | 100 |

Sample 2
Target: Tyrosine-protein kinase JAK2 (JAK2, Homo sapiens, UniProt O60674)
Read-out: enzyme activity
Action: inhibitor
Concentration: 0.5 µM
Reference: control
| Compound | remaining activity |
| --- | --- |
| C#Cc1cccc(Nc2ncnc3cc(OCCOC)c(OCCOC)cc23)c1 | 99.1% |
| NCCNc1ncc(C(N)=O)c(Nc2cccc(C(F)(F)F)c2)n1 | 96.7% |
| COc1ccc(OC)c2c(=S)c3ccccc3[nH]c12 | 96% |
| CN(C)c1ccc(C=C2C(=O)Nc3ccccc32)cc1 | 94.8% |
| N#CC(C#N)=C(N)/C(C#N)=C/c1ccc(O)cc1 | 102% |
| O=C(Nc1cccc(Nc2cc(Nc3cccc(C(F)(F)F)c3)ncn2)c1)C1CC1 | 99.5% |
| Cn1sc(=O)n(Cc2ccccc2)c1=O | 91.6% |
| Cc1ccc(Nc2nccc(N(C)c3ccc4c(C)n(C)nc4c3)n2)cc1S(N)(=O)=O | 101% |
| O=C(O)c1ccc2c3c1cccc3c(=O)n1c3ccccc3nc21 | 86.7% |
| CO[C@H]1C[C@@H]2CC[C@@H](C)[C@@](O)(O2)C(=O)C(=O)N2CCCC[C@H]2C(=O)O[C@H]([C@H](C)C[C@@H]2CC[C@@H](O)[C@H](OC)C2)CC(=O)[C@H](C)/C=C(\C)[C@@H](O)[C@@H](OC)C(=O)[C@H](C)C[C@H](C)/C=C/C=C/C=C/1C | 97.5% |
| Nc1[nH]nc2nc3ccccc3nc12 | 105% |
| Cn1c2ccccc2c2c3c(c4c5ccccc5n(CCC#N)c4c21)CNC3=O | 5.58% |
| CC(C)[C@H](CO)Nc1nc(Nc2cc(N)cc(Cl)c2)c2ncn(C(C)C)c2n1 | 100% |
| O=C1NC(=O)C(c2cn(CCCO)c3ncccc23)=C1c1cnccn1 | 97.8% |
| Nc1ccc2ncnc(NCCc3ccc(Oc4ccccc4)cc3)c2c1 | 103% |

Sample 3
Target: Calcium/calmodulin-dependent protein kinase type II subunit alpha (CAMK2A, Homo sapiens, UniProt Q9UQM7)
Read-out: enzyme activity
Action: inhibitor
Concentration: 10 µM
| Compound | inhibition [%] |
| --- | --- |
| CCN(CC)C(=O)c1cccnc1 | -11 |
| CC(=O)O[C@@H]1CC[C@@]2(C)[C@@H](CC[C@]3(C)[C@@H]2C(=O)C=C2[C@@H]4[C@@H](C)[C@H](C)CC[C@]4(C)CC[C@]23C)[C@@]1(C)C(=O)O | 6 |
| Cc1c(OCC(F)(F)F)ccnc1C[S@@+]([O-])c1nc2ccccc2[nH]1 | -1 |
| CC(C(=O)c1ccc(O)cc1O)c1ccc(O)cc1 (stereo not drawn) | 22 |
| C=C1C[C@@]23CC[C@H]4[C@@](C)(CCC[C@@]4(C)C(=O)O[C@@H]4O[C@H](CO)[C@@H](O)[C@H](O)[C@H]4O)[C@@H]2CC[C@]1(O[C@@H]1O[C@H](C)[C@@H](O)[C@H](O)[C@@H]1O[C@@H]1O[C@H](CO)[C@@H](O)[C@H](O[C@@H]2O[C@H](CO)[C@@H](O)[C@H](O)[C@H]2O)[C@H]1O)C3 | -40 |
| C[C@]1(O)C[C@@H](O)[C@@H]2C=CO[C@@H](O[C@@H]3O[C@H](CO)[C@@H](O)[C@H](O)[C@H]3O)[C@@H]21 | -36 |
| C[N+](C)(C)CCCCCCCCCC[N+](C)(C)C | -11 |

Sample 4
Compound: CO[C@@H]1[C@H](N(C)C(=O)c2ccccc2)C[C@H]2O[C@]1(C)n1c3ccccc3c3c4c(c5c6ccccc6n2c5c31)C(=O)NC4
Action: inhibitor
Concentration: 1 µM
| target | test | inhibition [%] |
| --- | --- | --- |
| CHEK1 (Homo sapiens, UniProt O14757) | enzyme activity | 32 |
| CSNK2A2 (Homo sapiens, UniProt P19784) | enzyme activity | 12 |
| EPHA2 (Homo sapiens, UniProt P29317) | enzyme activity | 0 |
| PRKCD (Homo sapiens, UniProt Q05655) | enzyme activity | 94 |
| TGFBR1 (Homo sapiens, UniProt P36897) | enzyme activity | 3 |
| EIF2AK4 (Homo sapiens, UniProt Q9P2K8, S808G) | – | 99 |
| NTRK2 (Homo sapiens, UniProt Q16620) | enzyme activity | 88 |
| PLK2 (Homo sapiens, UniProt Q9NYY3) | enzyme activity | 21 |
| Aurora kinase A (AURKA, Homo sapiens, UniProt O14965) | enzyme activity | 98 |
| CDK11B (Homo sapiens, UniProt P21127) | enzyme activity | 0 |

Excerpt of the above (sample 2):
| Compound | remaining activity |
| --- | --- |
| Cn1sc(=O)n(Cc2ccccc2)c1=O | 91.6% |
| Cc1ccc(Nc2nccc(N(C)c3ccc4c(C)n(C)nc4c3)n2)cc1S(N)(=O)=O | 101% |
| O=C(O)c1ccc2c3c1cccc3c(=O)n1c3ccccc3nc21 | 86.7% |
| CO[C@H]1C[C@@H]2CC[C@@H](C)[C@@](O)(O2)C(=O)C(=O)N2CCCC[C@H]2C(=O)O[C@H]([C@H](C)C[C@@H]2CC[C@@H](O)[C@H](OC)C2)CC(=O)[C@H](C)/C=C(\C)[C@@H](O)[C@@H](OC)C(=O)[C@H](C)C[C@H](C)/C=C/C=C/C=C/1C | 97.5% |
| Nc1[nH]nc2nc3ccccc3nc12 | 105% |
| Cn1c2ccccc2c2c3c(c4c5ccccc5n(CCC#N)c4c21)CNC3=O | 5.58% |
